Results of several laboratories.
Lines come from different studies, so protocols differ. Values joined by “and” are separate records of one study, mostly repeats; a detail may differ.
Target: Mitogen-activated protein kinase 8 (MAPK8, Homo sapiens, UniProt P45983)
UniProt P45983, sequence (whole entry, looked up): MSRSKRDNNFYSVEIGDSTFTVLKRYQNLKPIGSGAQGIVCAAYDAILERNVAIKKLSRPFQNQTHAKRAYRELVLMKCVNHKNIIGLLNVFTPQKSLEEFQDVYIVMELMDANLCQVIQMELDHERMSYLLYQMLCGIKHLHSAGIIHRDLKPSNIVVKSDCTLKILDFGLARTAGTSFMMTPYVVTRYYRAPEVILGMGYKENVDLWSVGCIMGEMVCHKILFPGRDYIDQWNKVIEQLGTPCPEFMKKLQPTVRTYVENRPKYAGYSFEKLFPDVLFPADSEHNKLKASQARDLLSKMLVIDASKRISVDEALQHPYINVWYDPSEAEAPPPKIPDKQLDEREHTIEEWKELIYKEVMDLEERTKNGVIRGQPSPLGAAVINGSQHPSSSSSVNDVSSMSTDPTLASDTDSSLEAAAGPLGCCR

Compound	assay	test system	setting	scale	quantity	result
Nc1nnc(-c2ccncc2)s1	binding, isothermal titration calorimetry	–	–	–	ligand efficiency	0.44
CNc1ncc2c(/C=C/C(=O)N3CCC(OC)CC3)nn(Cc3cccc(C(F)(F)F)c3)c2n1	kinase activity, inhibitor	–	1 µM	relative to: untreated control	remaining activity	91%
Cc1cc(Nc2cc(N3CCN(C)CC3)nc(Sc3ccc(NC(=O)C4CC4)cc3)n2)[nH]n1	kinase activity, KinaseProfiler	–	0.03 µM, species human	relative to: control	remaining activity	105%
O=C(NC1CCC1)c1ccc2nc(-c3cccc(NS(=O)(=O)NCCN4CCCCC4)c3)cn2c1	enzyme activity	–	10 µM	–	remaining activity	99%
Cc1cc(NC(=O)c2cccc(NC(=O)/C=C/CN(C)C)c2)ccc1Nc1nccc(-c2cccnc2)n1	enzyme activity, inhibitor	–	0.06097 µM, 0 h, unit not given, added: GSH 10 mM pre-incubation	relative to: vehicle	remaining activity	0.389
Cc1cc(-c2cccc(-n3cc(COC(=O)[C@]4(C)C=C(C(=O)OC(C)(C)C)C(=O)CC4)nn3)c2)c(C)c2c1CNCC2	D-peptide binding, inhibitor, FP peptide displacement	–	0.7812 µM	lower is stronger displacement	fraction bound	0.754
O=C(Nc1nnc(-c2ccncc2)s1)C(F)(F)Br	binding, isothermal titration calorimetry	–	–	–	ligand efficiency	0.38
C#CCCOC(=O)[C@]1(C)C=C(C(=O)OC(C)(C)C)C(=O)CC1	D-peptide binding, inhibitor, FP peptide displacement	–	25 µM	lower is stronger displacement	fraction bound	0.274
O=C(Nc1nnc(-c2ccncc2)s1)C(F)(F)Cl	binding, isothermal titration calorimetry	–	–	–	association constant	53900 M⁻¹
CCN(CC)c1ccc(C2=NNC(=O)CC2C)cc1[N+](=O)[O-] (stereo not shown)	enzyme activity, inhibitor	–	10 µM	relative to: vehicle	remaining activity	121%
O=C(Nc1nnc(-c2ccncc2)s1)C(F)(F)I	binding, isothermal titration calorimetry	–	–	–	association constant	95700 M⁻¹ and 105000 M⁻¹ and 99900 M⁻¹
CC(C)C[C@@H](C=O)NC(=O)[C@H](CC(C)C)NC(=O)[C@H](CC(C)C)NC(=O)OCc1ccccc1	degrader, western blot, refers to: JNK over tubulin	HeLa	concentration not given	relative to: untreated control	relative protein level	1.28
C=CC(=O)N1CCC(C(=O)NCC(=O)N2CCN(c3nc(-c4cnc(N)nc4C(F)F)nc(N4CCOCC4)n3)CC2)CC1	KINOMEscan	–	1 µM	–	remaining binding	93%

A few entries again:
Compound	assay	test system	setting	scale	quantity	result
Cc1cc(-c2cccc(-n3cc(COC(=O)[C@]4(C)C=C(C(=O)OC(C)(C)C)C(=O)CC4)nn3)c2)c(C)c2c1CNCC2	D-peptide binding, inhibitor, FP peptide displacement	–	0.7812 µM	lower is stronger displacement	fraction bound	0.754
O=C(Nc1nnc(-c2ccncc2)s1)C(F)(F)Br	binding, isothermal titration calorimetry	–	–	–	ligand efficiency	0.38
